Measurements pooled from the literature.
A part holds a random share of what one study measured. Substitutions count along the parent as printed.

Study 1 — technique: DHFR PCA, deep sequencing; medium: yeast; together with: (+)-ABA 1.4 µM; reference: wild-type fitted maximum; reading: higher = stronger binding
Target: ABI1, truncated, D143A, DHFR fusion (Arabidopsis thaliana)
Setting: methotrexate growth selection, single substitutions
Starting sequence: PYL1, truncated, DHFR fusion (Arabidopsis thaliana); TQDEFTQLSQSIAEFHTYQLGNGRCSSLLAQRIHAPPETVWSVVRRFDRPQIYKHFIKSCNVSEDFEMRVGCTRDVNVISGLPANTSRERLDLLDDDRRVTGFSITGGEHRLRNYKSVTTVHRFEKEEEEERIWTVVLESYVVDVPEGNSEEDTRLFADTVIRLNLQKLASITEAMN; partner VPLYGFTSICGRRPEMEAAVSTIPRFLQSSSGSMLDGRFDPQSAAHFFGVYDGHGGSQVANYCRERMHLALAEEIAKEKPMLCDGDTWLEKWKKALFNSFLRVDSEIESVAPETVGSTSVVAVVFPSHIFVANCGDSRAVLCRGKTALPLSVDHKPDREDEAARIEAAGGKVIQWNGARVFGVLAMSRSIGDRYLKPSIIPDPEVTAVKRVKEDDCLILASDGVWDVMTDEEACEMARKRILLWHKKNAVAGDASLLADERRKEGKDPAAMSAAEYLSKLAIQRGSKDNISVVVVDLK
| Change | relative binding score [%] |
| --- | --- |
| K168D | -5.7 |
| V76T | -0.692 |
| P37T | 18.8 |
| F47Q | -0.584 |
| R49K | 70.8 |
| D96S | 1.58 |
| Q2R | 61.6 |
| H34N | 57.3 |
| H16F | -8.33 |
| I172H | -3.32 |
| D48Q | -6.37 |
| S63C | 51.2 |
| H55C | 83.1 |
| E129Q | 55 |
| I79G | 0.39 |

Study 2 — technique: RNA Bind-n-Seq; form: RNA; medium: in vitro; tested at: not given; reference: input RNA pool; reading: higher = stronger binding
Target: RING finger protein unkempt homolog, zinc fingers 1-6, GST-SBP tag (UNK, Homo sapiens, UniProt Q9C0B0, residues 30-357)
UniProt Q9C0B0, sequence (30-357, looked up): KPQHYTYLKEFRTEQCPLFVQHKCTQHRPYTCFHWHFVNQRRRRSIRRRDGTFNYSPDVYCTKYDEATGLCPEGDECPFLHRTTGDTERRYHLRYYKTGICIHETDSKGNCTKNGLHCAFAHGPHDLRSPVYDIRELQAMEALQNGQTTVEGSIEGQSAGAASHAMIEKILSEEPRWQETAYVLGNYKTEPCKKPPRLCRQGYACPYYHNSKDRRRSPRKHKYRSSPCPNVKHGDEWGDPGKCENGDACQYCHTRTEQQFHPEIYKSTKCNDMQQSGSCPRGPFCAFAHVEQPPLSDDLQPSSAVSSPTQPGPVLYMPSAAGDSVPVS
Setting: RNA with constant flanks, human and mouse sites, ends assumed
Constant ends, left off below: GGGAGUUCUACAGUCCGACGAUC … CAACAGAGGAUUGAGCAUCA
| Strand | bound/input enrichment [ratio] |
| --- | --- |
| GAAGAUGAAGCCAAUAUAGCCUGGAAGUAUUACAAGUUCCCAAAGAAAAAAGAUGUAGAGUUUUUACCACCUCAACUUCCAAGUGAUAAAUUCAAGGAUGAUCCAGUUGGACCUUUUGGA | 0.541 |
| UUUGAUACAGUCAAAAGUGUUCUCGACAAAGACCGAAAAGAAGAUGAUACAAAUGAAUUUGUUAGUGCUGUGUGCUGGAGGGCACUACCAGAUGGGGAGUCCAAUGUGCUGAUUGCUGCU | 0.58 |
| CAGCUAAUCCAAAGGGAGUUUCAGACCAGUGCAAUCAGCAGAGACAUUGAUACUGCUGCCAAAUUUAUUGGUGCAGGUGCUGCAACAGUAGGAGUGGCUGGUUCUGGUGCUGGUAUUGGA | 0.136 |
| CAUAGUACUACUGGAAUGCUCAAUCAGUUAUUUUUGGUGUGGCAUACUUCAGAGCUGGCCUGUCCGUCUGAAGAACCCUUUCUCUCACAAUUACAGUUUGCAUGACUAGAACCCGGAACU | 0.449 |
| GCCAUGACGCUGAAUGAGAGCAACAUCUCUGCUGUCACCGGACUUAUCCGAUGUCAGUUAAUAGAGGGGCAGUUGCAAGAUGCAGACCAGCAGUUGGAGUUCUUCAGUGAAUUCCAGCAG | 0.208 |
| CUUAGUUUUGCUGUUUUUGUGGUUUGGUUUUUUUUGUUUUUUGUUUUGGUCAUCCCUAAUAAAGUGUCUGCUAAUUCAAGGCUUAUACAUUAUAUUUAUAGAAUAUAAAUUUGUCAGUGG | 4.55 |
| AACCAUCCAGGCCAAAUAAGCGCCGGCUAUGCCCCUGUAUUGGAUUGCCACACGGCUCACAUUGCAUGCAAGUUUGCUGAGCUGAAGGAAAAGAUUGAUCGCCGUUCUGGUAAAAAGCUG | 0.305 |
| GCAGGCAAUUGGGGAGCUUAGUCUAAGAGCAAUGGCUCCCGGGGUUUCCCCCACCAAACAGUCUUCCCUUACCUCGGUGGACUUGUAUAUAUUCUAGAGAAGGGCGUGGGUUGCACCGUC | 0.449 |
| GUAUCUAGCUUUUAAAGAACUACAUGUGUCUUUAAAAGUAUUUAUUGUGCAAAUGUACUAUAGCAGUUCAUCUUCAUGUUCCAGCCUUACUCUGUGUUAAUACUGCUUCACAAUUCUGAA | 0.243 |
| GACUCCUGUGUCUUGCGUGGAGUCAUGAUUAACAAGGAUGUGACCCAUCCACGUAUGCGGCGCUAUAUCAAGAACCCUCGCAUUGUGCUGCUGGAUUCUUCUCUGGAAUACAAGAAAGGA | 0.153 |
| AUCUUUGGCUAGUGCUUUUCAAUUAUCUGAAGAUGGAGACUCAAUUCCUUAUACUAUUAAUAGGUACUUGCGAGAUUACCAAAGGGAGGGGGCUCAGUUCCUCUACAGACACUACAUAGA | 1.03 |

Study 3 — technique: protein-binding microarray; form: double-stranded DNA, one strand shown; medium: in vitro; tested at: 0.8 µM; setting: whole 60-bp probe, no competitor; reading: higher = stronger binding; constant ends, left off below: … GTCTTGATTCGCTTGACGCTGCTG
Target: Centromere-binding protein 1, full length, N-terminal tag (CBF1, Saccharomyces cerevisiae, UniProt P17106, residues 1-351)
UniProt P17106, sequence (whole entry, looked up): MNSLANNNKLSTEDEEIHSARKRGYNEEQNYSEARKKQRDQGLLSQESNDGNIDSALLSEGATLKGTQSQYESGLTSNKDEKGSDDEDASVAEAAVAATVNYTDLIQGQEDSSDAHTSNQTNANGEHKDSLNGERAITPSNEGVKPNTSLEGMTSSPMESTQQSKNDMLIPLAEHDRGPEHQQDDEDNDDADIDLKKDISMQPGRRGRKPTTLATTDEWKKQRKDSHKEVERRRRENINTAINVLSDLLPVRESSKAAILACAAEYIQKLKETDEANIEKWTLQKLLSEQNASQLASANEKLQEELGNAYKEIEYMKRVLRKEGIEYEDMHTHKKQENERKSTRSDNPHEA
| Strand | fluorescence intensity [a.u.] |
| --- | --- |
| CTAACACCCACCCAGATCGTGATTTTTGTTACCTTC | 549 |
| CTAATTTTGTTATTGTACGTGGGGCAGTTGACGTTC | 572 |
| CCTAACTACTATAATCACACTGAATAGCTTCGTACA | 527 |
| TGTACGAAGCTATTGCGTGTGTTTATAGTAGTTAGG | 530 |
| GAAAATAGTTTGTGTGGTCTGATTATTTACGTATAG | 549 |
| GAAAGCTCTCCCCCCCACACGTGATAGCCTTTCTAG | 3070 |
| CTATTAAAAAAAAATCACGTGGTGCAAAAAAAATTC | 16500 |
| GAAAGAAAGAGCAGTGATGTCAGCGGTAATGGCTAG | 477 |
| GAATTCAGCTAACGTGATACAACAGGTCACCTTTAG | 1410 |
| GAATTACTGAAGCCTCACGTGAGGGCAATCTGGTAG | 7770 |
| CTAAAAATGCCTCATGACGGTATCTGGGGTCTCTTC | 552 |
| CTAGCCGATACGGCACCCGTGCGATACGAGACATTC | 552 |
| GAACTTATCACGTGACACGTGTGCGGCAAATTTTAG | 31300 |

Study 4 — technique: protein binding microarray; form: double-stranded DNA, one strand shown; medium: in vitro; tested at: not given; reference: not given; reading: higher = stronger binding
Target: Histone acetyltransferase KAT6A, winged helix 1, GST fusion (KAT6A, Homo sapiens, UniProt Q92794, residues 1-85)
Setting: 8-mer, flanks averaged, mean of 2 arrays, mostly near background
Construct (chain): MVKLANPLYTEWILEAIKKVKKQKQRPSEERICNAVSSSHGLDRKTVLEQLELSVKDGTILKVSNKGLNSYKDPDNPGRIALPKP
| Strand | E-score |
| --- | --- |
| ATCGAGGG | -0.0472 |
| GAAGAAGC | -0.021 |
| AGCCACGA | -0.134 |
| CAAACGGA | 0.151 |
| ATTACCGA | -1.5e-05 |
| CGTTTAAA | -0.0382 |
| GCGTATGA | 0.104 |
| ACGCCCCG | 0.264 |
| GGATCGAA | 0.0618 |
| GCGATTAA | 0.115 |
| CAAAGAAG | -0.25 |
| AATCAACT | -0.125 |
| AACGGGGC | 0.273 |
| CTTTGTCC | -0.0655 |
| GTCGAGGA | -0.175 |
| AGTCAAGC | -0.049 |
| GGGAGGGA | -0.0232 |
| ATCAACTA | -0.00455 |
| CCCTGACC | -0.0433 |
| ATCCCATG | -0.173 |

Study 5 — technique: RNA Bind-n-Seq; form: RNA; medium: in vitro; tested at: 1 µM; setting: whole 134-nt RNA, ends assumed; together with: 150 mM KCl; reference: input library; reading: higher = stronger binding
Target: Ras GTPase-activating protein-binding protein 1, C-terminal RGG region (G3BP1, Homo sapiens, UniProt Q13283)
UniProt Q13283, sequence (whole entry, looked up): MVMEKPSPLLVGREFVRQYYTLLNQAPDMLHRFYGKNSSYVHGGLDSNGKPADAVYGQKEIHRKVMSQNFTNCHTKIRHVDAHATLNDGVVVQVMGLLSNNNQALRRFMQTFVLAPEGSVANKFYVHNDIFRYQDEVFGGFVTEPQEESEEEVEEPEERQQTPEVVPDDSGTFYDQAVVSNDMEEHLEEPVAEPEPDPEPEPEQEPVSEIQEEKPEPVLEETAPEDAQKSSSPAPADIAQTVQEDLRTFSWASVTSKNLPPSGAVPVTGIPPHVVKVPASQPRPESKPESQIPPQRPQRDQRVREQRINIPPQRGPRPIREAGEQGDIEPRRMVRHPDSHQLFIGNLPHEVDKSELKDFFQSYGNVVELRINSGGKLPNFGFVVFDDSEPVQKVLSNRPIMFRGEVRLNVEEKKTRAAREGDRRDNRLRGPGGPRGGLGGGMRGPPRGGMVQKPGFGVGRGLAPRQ
Constant ends, left off below: GGGAGUUCUACAGUCCGACGAUC … UGGAAUUCUCGGGUGUCAAGG
| Strand | log2 enrichment |
| --- | --- |
| AAAUGGUAGUGUGCGGAGUUUUUUUUUCUUCCUUCUUUUAAAAAUGGUUGUUUAAGACUUUAACAAUGGGAACCCCUUGUGAGCAUGCUC | -1.73 |
| GAACUUUAGAGGAGGAUCUGAUGGAUAUGGCAGUGGACGUGGAUUUGGGGAUGGCUAUAAUGGGUAUGGAGGAGGACCUGGAGGUGGCAA | -0.863 |
| ACCGUGCAGGUGGGCAUCUUUGGGAAGUGGGGCAAGGGGGGGAUAGGGAGGGGGGUAACACUUUGGGAACAGGUGGUCCCAGGUCGUUUC | -1.06 |
| UCCUGUGCUACACAUCGUAUGUACCGAAUCGGGGAAAGGGGUUUGGGGAAAAAAAGGGGAAAGUAUUAUGUUACGCCGUUCGGAUCUGCA | 1.5 |
| GUCCUGUGCUACACAUCGUAUGUACCGAAUCGGGGAAAGGGGUGGGGUUUUUUUGGGGAAAGUAUUAUGUUACGCCGUUCGGAUCUGCAC | 1.84 |
| CUCAAGUCCUGUGCUACACAUCGUAUGUACCGAAUCGGGAAAGGGUGGGUGGGAAAGUAUUAUGUUACGCCGUUCGGAUCUGCACUUCCA | 1.69 |
| UCCUGUGCUACACAUCGUAUGUACCGAAUCGGGCCCCCCCGGCCCCCCCGGCCCCCCCGGAAAGUAUUAUGUUACGCCGUUCGGAUCUGC | -1.08 |
| ACCAUGCAGGUGGGCAUCUUUGGGAAGUGGGACAAGGGGGGGAUAGGGAGGGGGGUAACACUUUGGGAACAGGUGGUCCCAGGUCGUUUC | -1.48 |
| CCUUUUUGAGAAGGCCGGACCCAUUUGGGAUCUACGUCUUAUGAUGGAUCCACUGUCCGGUCAGAAUAGAGGGUAUGCAUUUAUCACCUU | -1.85 |
| UUACUUUAGAGGAGGAUCUGAUGGAUAUGGCAGUGGACGUGGAUUUGGGGAUGGCUAUAAUGGGUAUGGAGGAGGACCUGGAGGUGGCAA | -1.15 |
| UGUGCUACACAUCGUAUGUACCGAAUCGUGUGUGUGUGUGUGUGUGUGUGUGUGUGUGUGUGUAAAGUAUUAUGUUACGCCGUUCGGAUC | 1.72 |
| CUCAAGUCCUGUGCUACACAUCGUAUGUACCGAAUCGGUUUGGAAAGGUUUGGAAAGUAUUAUGUUACGCCGUUCGGAUCUGCACUUCCA | -0.991 |
| UGUGCUACACAUCGUAUGUACCGAAUCGGGGAAAAAGGGGAAAAAAAGGGGUUUUUUUGGGGAAAGUAUUAUGUUACGCCGUUCGGAUCU | 1.13 |
| CUCAAGUCCUGUGCUACACAUCGUAUGUACCGAAUCGGUGGAGGUUUUUUUGGAAAGUAUUAUGUUACGCCGUUCGGAUCUGCACUUCCA | -0.975 |

For quick reference, copied from above (study 5):
| Strand | log2 enrichment |
| --- | --- |
| UCCUGUGCUACACAUCGUAUGUACCGAAUCGGGGAAAGGGGUUUGGGGAAAAAAAGGGGAAAGUAUUAUGUUACGCCGUUCGGAUCUGCA | 1.5 |
| GUCCUGUGCUACACAUCGUAUGUACCGAAUCGGGGAAAGGGGUGGGGUUUUUUUGGGGAAAGUAUUAUGUUACGCCGUUCGGAUCUGCAC | 1.84 |
| CUCAAGUCCUGUGCUACACAUCGUAUGUACCGAAUCGGGAAAGGGUGGGUGGGAAAGUAUUAUGUUACGCCGUUCGGAUCUGCACUUCCA | 1.69 |
| UCCUGUGCUACACAUCGUAUGUACCGAAUCGGGCCCCCCCGGCCCCCCCGGCCCCCCCGGAAAGUAUUAUGUUACGCCGUUCGGAUCUGC | -1.08 |
| ACCAUGCAGGUGGGCAUCUUUGGGAAGUGGGACAAGGGGGGGAUAGGGAGGGGGGUAACACUUUGGGAACAGGUGGUCCCAGGUCGUUUC | -1.48 |
| CCUUUUUGAGAAGGCCGGACCCAUUUGGGAUCUACGUCUUAUGAUGGAUCCACUGUCCGGUCAGAAUAGAGGGUAUGCAUUUAUCACCUU | -1.85 |
